Results pooled from the literature.
Compare with care: the assays were run in different laboratories. “And” joins repeats or separate records; there may be more than shown. ± gives the spread as reported.
GBA2: Beta-glucosidase (GBA2, Homo sapiens, UniProt Q9HCG7)
Sequence of UniProt P11712 (whole entry, looked up): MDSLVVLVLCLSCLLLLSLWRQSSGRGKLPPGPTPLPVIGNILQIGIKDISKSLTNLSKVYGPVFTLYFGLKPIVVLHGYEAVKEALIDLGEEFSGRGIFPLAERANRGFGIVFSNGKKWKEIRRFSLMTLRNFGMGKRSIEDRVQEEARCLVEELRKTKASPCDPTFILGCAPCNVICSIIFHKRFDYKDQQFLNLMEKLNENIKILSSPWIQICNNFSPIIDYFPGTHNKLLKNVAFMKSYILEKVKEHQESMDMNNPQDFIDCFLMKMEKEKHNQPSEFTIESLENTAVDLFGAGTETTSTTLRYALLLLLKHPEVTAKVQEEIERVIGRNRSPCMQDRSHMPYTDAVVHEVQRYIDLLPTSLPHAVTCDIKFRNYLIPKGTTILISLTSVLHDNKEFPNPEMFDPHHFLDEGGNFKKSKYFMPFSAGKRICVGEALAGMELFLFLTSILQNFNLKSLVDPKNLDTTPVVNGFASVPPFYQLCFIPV
Sequence of UniProt Q9HCG7 (whole entry, looked up): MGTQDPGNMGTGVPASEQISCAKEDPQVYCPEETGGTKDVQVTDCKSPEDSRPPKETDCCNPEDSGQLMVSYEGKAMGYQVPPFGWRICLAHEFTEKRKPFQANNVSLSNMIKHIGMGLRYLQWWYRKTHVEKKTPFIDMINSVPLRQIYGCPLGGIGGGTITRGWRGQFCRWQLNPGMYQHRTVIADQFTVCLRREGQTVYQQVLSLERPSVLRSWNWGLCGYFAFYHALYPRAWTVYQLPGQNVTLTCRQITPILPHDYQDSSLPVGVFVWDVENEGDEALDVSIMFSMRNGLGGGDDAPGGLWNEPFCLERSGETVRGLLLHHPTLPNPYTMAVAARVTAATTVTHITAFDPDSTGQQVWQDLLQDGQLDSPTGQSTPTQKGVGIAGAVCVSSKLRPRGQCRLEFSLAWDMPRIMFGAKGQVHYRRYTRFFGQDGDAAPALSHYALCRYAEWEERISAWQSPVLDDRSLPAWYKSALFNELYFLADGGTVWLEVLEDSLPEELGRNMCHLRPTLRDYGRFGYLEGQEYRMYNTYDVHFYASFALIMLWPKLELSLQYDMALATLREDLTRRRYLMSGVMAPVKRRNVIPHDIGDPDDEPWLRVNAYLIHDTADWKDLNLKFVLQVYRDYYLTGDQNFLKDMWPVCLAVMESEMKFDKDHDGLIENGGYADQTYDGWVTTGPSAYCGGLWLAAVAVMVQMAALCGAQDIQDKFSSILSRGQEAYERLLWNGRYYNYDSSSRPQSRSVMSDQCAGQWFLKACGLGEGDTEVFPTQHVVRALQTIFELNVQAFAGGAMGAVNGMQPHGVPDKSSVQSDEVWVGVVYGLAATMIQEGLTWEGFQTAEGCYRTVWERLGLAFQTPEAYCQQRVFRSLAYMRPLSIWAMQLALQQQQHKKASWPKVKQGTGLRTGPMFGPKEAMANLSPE
Sequence of UniProt O75469 (whole entry, looked up): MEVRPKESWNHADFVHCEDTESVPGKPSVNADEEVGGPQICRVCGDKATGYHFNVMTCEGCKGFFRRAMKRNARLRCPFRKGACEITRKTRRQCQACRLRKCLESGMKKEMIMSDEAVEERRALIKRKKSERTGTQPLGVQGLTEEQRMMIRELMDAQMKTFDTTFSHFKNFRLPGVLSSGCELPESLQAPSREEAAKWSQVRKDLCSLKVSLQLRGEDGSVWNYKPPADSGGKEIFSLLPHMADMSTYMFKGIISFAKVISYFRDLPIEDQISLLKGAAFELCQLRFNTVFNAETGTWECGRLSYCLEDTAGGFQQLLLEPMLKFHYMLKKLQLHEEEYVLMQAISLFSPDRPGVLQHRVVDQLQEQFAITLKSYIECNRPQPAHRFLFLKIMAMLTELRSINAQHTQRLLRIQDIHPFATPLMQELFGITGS

SMILES = CC(C)OCCOCc1ccc(OCC(O)CN(N=O)C(C)C)cc1 (centres unmarked); target or system = Salmonella typhimurium; test = Ames test; test system = TA100; conditions = 5 µg/plate, without metabolic activation; how to read = reference: solvent control; endpoint = revertant fold increase; result = 0.9 fold
SMILES = CNC(=O)C1CCCN(C(=O)C2CC3CCC2N3C(=O)[C@@H]2C[C@@H](O)CN2C(=O)NCc2cccc(Cl)c2F)C1 (mixture of isomers); target or system = Cytochrome P450 2C9 (CYP2C9, Homo sapiens, UniProt P11712); test = preincubation with NADPH; test system = human; conditions = 50 µM; how to read = reference: negative control; endpoint = remaining activity; result = 99.7% and 118% and 97.4%
SMILES = COc1cccc(OC)c1-c1cc(C(=O)NC2(C(=O)O)C3CC4CC(C3)CC2C4)nn1-c1ccc(C(=O)NCCNC(=O)[C@H](CCCCNC(=O)[C@H](CC(C)C)NC(=O)C2OC2C(=O)O)NC(=O)CN2CCN(CC(=O)[O-])CCN(CC(=O)[O-])CCN(CC(=O)[O-])CC2)cc1C(C)C.[177Lu+3] (mixture of isomers); target or system = HT-29 tumour model; test system = host not given, blood; conditions = 24 h, tumour-bearing; endpoint = tracer uptake; result = 0.56 %ID/g
SMILES = CC[C@H](C)[C@H](NC(=O)C[C@H](NC(=O)CN1CCN2CCN(CC1)CC(=O)[O][Al]([18F])[O]C(=O)C2)C(=O)O)C(=O)N[C@H]1CCc2cccc3c2N(C1=O)[C@H](C(=O)NCc1cn[nH]n1)C3; target or system = MC-38 tumour model; test system = host not given, muscle; conditions = 30 min, tumour-bearing; endpoint = tracer uptake; result = 0.42 %ID/g
SMILES = COCC1CN(C2CCN(c3cc(OC)c(Nc4ncc(Br)c(Nc5ccc6c(c5P(C)(C)=O)OCCO6)n4)cc3C)CC2)C1; test system = EGFR-mutant NSCLC patients, plasma; conditions = oral, 60 mg multiple doses, geometric mean; endpoint = Cmin; result = 438 ng/mL
SMILES = O=C1C2CC3CC1CC(C(=O)N1CCN(c4ccc([N+](=O)[O-])c5ncccc45)CC1)(C3)C2; target or system = Salmonella typhimurium; test = Ames test; test system = TA1535; conditions = 0.05 µg/well, without S9; how to read = reference: vehicle; endpoint = revertant fold increase; result = 0.4
SMILES = O=C(Oc1cc(OC(=O)c2cc(O)c(O)c(O)c2)c2ccccc2c1)c1cc(O)c(O)c(O)c1; target or system = herpes simplex virus 2; test = viral DNA RT-qPCR; test system = 333; how to read = CC50 over IC50; endpoint = therapeutic index; result = > 20
SMILES = N#C[C@@H]1CC(F)(F)CN1C(=O)CNC(=O)c1ccnc2c(NC(=O)[C@H](CCCCNC(=O)CCOCCOCCOCCOCCOCCOCCNC(=O)CN3CCN(CC(=O)[O-])CCN(CC(=O)[O-])CCN(CC(=O)[O-])CC3)NC(=O)CCCc3ccc(I)cc3)cccc12.[177Lu+3]; target or system = U-87 MG tumour model; test system = host not given, muscle; conditions = 72 h, tumour-bearing; endpoint = tracer uptake; result = 0.09 %ID/g
SMILES = OC[C@H]1N[C@H](C/C=C/CCOCC23CC4CC(CC(C4)C2)C3)[C@H](O)[C@@H](O)[C@@H]1O; target or system = GBA2; test = inhibitor, 4MU-β-D-glucopyranoside; test system = HEK293T homogenates overexpressing GBA2; how to read = reference: GBA1 IC50 over GBA2 IC50; endpoint = selectivity ratio; result = 13
SMILES = O=C1NC2(CC2)COc2ncc(F)cc2[C@H]2COCCN2c2ccn3ncc1c3n2; target or system = Salmonella typhimurium; test = Ames test; test system = TA97a; conditions = 1500 µg/plate, 48 h, together with: rat liver S9; endpoint = revertant colonies; result = 105 ± 7 revertants/plate
SMILES = CCN(CC)CC#CCNc1ccnc2cc(Cl)ccc12; target or system = Salmonella typhimurium; test = mini-Ames test; test system = TA102; conditions = 125.0 µg/well, without S9; endpoint = revertants; result = 70 revertants/well and 76 revertants/well
SMILES = COc1cccc(OC)c1-c1cc(C(=O)NC2(C(=O)O)C3CC4CC(C3)CC2C4)nn1-c1ccc(C(=O)N(C)CCCN(C)C(=O)[C@H](CCCCNC(=O)[C@H](CC(C)C)NC(=O)C2OC2C(=O)O)NC(=O)CN2CCN(CC(=O)[O-])CCN(CC(=O)[O-])CCN(CC(=O)[O-])CC2)cc1C(C)C.[177Lu+3] (mixture of isomers); target or system = HT-29 tumour model; test system = host not given, bone; conditions = 72 h, tumour-bearing; endpoint = tracer uptake; result = 0.13 %ID/g
SMILES = N#Cc1ccnc(N2C(=O)CC[C@H]2C(=O)N(c2cncc(F)c2)[C@H](C(=O)NC2CC(F)(F)C2)c2ccccc2Cl)c1; target or system = Nuclear receptor subfamily 1 group I member 2 (NR1I2, Homo sapiens, UniProt O75469); test = reporter gene, agonist; conditions = 10 µM; how to read = reference: rifampicin; endpoint = activation; result = 21%
SMILES = CC(C)Cc1ccc(C(C)C(=O)N[C@@H](CCCCNC(=O)CCOCCOCCOCCOCCOCCOCCNC(=O)CN2CCN(CC(=O)[O-])CCN(CC(=O)[O-])CCN(CC(=O)[O-])CC2)C(=O)Nc2cccc3c(C(=O)NCC(=O)N4CC(F)(F)C[C@H]4C#N)ccnc23)cc1.[177Lu+3] (some centres unmarked); target or system = U-87 MG tumour model; test system = host not given, tumour; conditions = 1 h, tumour-bearing; endpoint = tracer uptake; result = 22 %ID/g
SMILES = CC(C)(C)CCOCCCCCN1C[C@H](O)[C@@H](O)[C@H](O)[C@H]1CO; target or system = GBA2; test = inhibitor, 4MU-β-D-glucopyranoside; test system = HEK293T homogenates overexpressing GBA2; how to read = reference: GCS IC50 over GBA2 IC50; endpoint = selectivity ratio; result = 152
SMILES = N#C[C@@H]1CC(F)(F)CN1C(=O)CNC(=O)c1ccnc2c(NC(=O)CCOCCOCCOCCOCCOCCOCCNC(=O)[C@H](CCCCNC(=O)CN3CCN(CC(=O)[O-])CCN(CC(=O)[O-])CCN(CC(=O)[O-])CC3)NC(=O)CCCc3ccc(I)cc3)cccc12.[177Lu+3]; target or system = U-87 MG tumour model; test system = host not given, liver; conditions = 4 h, tumour-bearing; endpoint = tracer uptake; result = 1.28 %ID/g
SMILES = CC[C@H](C)[C@H](NC(=O)[C@H](Cc1ccccc1)NC(=O)[C@H](CCC(=O)O)NC(=O)[C@H](CCCCN)NC(=O)[C@H](C)NC(=O)[C@H](C)NC(=O)[C@H](CCC(N)=O)NC(=O)CNC(=O)[C@H](CCC(=O)O)NC(=O)[C@H](CC(C)C)NC(=O)[C@H](Cc1ccc(O)cc1)NC(=O)[C@H](CO)NC(=O)[C@H](CO)NC(=O)[C@@H](NC(=O)[C@H](CC(=O)O)NC(=O)[C@H](CO)NC(=O)[C@@H](NC(=O)[C@H](Cc1ccccc1)NC(=O)[C@@H](NC(=O)CNC(=O)[C@H](CCC(=O)O)NC(=O)[C@H](C)NC(=O)[C@@H](N)Cc1c[nH]cn1)[C@@H](C)O)[C@@H](C)O)C(C)C)C(=O)N[C@@H](C)C(=O)N[C@@H](Cc1c[nH]c2ccccc12)C(=O)N[C@@H](CC(C)C)C(=O)N[C@H](C(=O)N[C@@H](CCCCN)C(=O)NCC(=O)N[C@@H](CCCN=C(N)N)C(=O)NCC(=O)O)C(C)C; target or system = DPP-4 (recombinant); test = substrate, LC-MS; conditions = 500 µM, 4 h; endpoint = remaining peptide; result = 76%
SMILES = O=C(Nc1cnccc1-c1ccc([18F])cc1)c1ccnc(NC(=O)C2CC2)c1; test = ex vivo biodistribution, gamma counting; test system = GSK-3β overexpressing transgenic mouse, late stage, caudate nucleus; conditions = intravenous, 120 min post-injection, together with: tariquidar 15 mg/kg iv, at least 120 min before tracer; endpoint = mean SUV; result = 0.23
SMILES = N=C(N)NCCC[C@@H]1NC(=O)[C@H](CCCNC(=N)N)NC(=O)[C@@H](C(c2ccccc2)c2ccccc2)NC(=O)[C@H](Cc2c[nH]c3ccccc23)NC(=O)[C@@H](C(c2ccccc2)c2ccccc2)NC(=O)[C@@H](CCCNC(=N)N)NC(=O)[C@@H](CCCNC(=N)N)NC1=O; target or system = HEKa; test = cell growth or viability, MTS; conditions = 100 µg/mL, 24 h; endpoint = viability; result = > 90%
SMILES = C=C(NC(=O)c1csc(-c2nc3c(cc2O)-c2nc(cs2)C(=O)NC(C(C)O)C(=O)NC(=C(C)OC)c2nc(cs2)C(=O)NC2c4nc(cs4)C(=O)NC(COC(=O)c4c5c6c(cccc6n4O)COC(=O)C(OC4CC(C)(O)C(N(C)C)C(C)O4)C2OC5)c2nc-3cs2)n1)C(N)=O (centres unmarked); test system = ICR mice, Streptococcus pneumoniae ATCC 49169 infected, immunocompromised, blood; conditions = intravenous, 2 mg/kg/day once daily; endpoint = AUC(0-inf); result = 59.8 ng·h/mL
